Results gathered from unrelated publications.
Every numbered part comes from another study and shows a few of its results, in no order. Several values in a cell are separate wells, animals, samples, runs or records. Positions count from the first letter of the parent shown.
Chain of UniProt Q9UBS0 (whole entry, looked up): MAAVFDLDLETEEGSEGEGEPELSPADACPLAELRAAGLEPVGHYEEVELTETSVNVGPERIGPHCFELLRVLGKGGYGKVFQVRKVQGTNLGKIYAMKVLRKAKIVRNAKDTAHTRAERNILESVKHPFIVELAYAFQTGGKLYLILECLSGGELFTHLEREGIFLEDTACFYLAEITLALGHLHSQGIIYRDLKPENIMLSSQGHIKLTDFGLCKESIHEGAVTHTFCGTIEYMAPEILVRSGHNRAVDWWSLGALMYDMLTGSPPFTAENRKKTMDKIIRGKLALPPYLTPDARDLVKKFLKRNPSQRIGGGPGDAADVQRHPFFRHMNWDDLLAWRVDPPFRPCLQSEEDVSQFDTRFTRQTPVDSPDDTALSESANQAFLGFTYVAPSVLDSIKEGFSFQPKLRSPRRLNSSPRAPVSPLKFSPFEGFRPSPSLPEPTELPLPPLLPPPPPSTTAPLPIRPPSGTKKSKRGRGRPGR

Study 1
Target: HLA class I histocompatibility antigen, C alpha chain, allele C*04:01 (Homo sapiens, UniProt P10321)
Observed: peptide-MHC binding
Form: peptide
Tested at: concentration not given
`MMWATAQAL` — result for binding: “inactive”.
`YTITSLFSL`: binding “inactive”.
`YSLEYFQFV` — result for binding: “inactive”.
`MSDWGHITV` — result for binding: “inactive”.
For `YTIGIGAFY`, binding read “inactive”.
For `MAWLFFWAI`, binding read “inactive”.
For `SVDSDHLGY`, binding read “inactive”.
Under binding, `KYFDDVTAF` is recorded as “inactive”.

Study 2
Target: 5-hydroxytryptamine receptor 2A (HTR2A, Homo sapiens, UniProt P28223)
Chain of UniProt P28223 (whole entry, looked up): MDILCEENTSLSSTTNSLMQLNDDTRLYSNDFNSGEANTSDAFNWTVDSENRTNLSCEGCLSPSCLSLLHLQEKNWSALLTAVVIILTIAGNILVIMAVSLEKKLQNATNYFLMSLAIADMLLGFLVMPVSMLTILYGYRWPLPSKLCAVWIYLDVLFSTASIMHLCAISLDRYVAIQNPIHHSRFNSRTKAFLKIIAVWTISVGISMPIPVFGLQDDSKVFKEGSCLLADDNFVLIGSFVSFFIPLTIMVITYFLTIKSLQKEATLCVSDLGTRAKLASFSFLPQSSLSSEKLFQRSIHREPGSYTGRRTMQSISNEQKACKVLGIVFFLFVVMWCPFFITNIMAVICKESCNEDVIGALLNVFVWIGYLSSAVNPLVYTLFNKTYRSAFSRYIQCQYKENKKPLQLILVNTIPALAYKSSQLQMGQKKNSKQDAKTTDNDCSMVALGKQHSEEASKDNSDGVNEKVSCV
Observed: ligand displacement
Tested at: 10 µM
`O=C(O)c1cc(-c2ccc(C3CCNCC3)cc2)c2ccc(-c3ccc(C(F)(F)F)cc3)cc2c1` has an inhibition of 29.1%.
With `COc1ccc2cc(OCC3(C(=O)O)CN(C(=O)c4ccc(F)cc4)C3)ccc2c1` the inhibition was 6.25%.
With `CNCc1ccccc1-c1csc([C@@H](C)Nc2nc(C)nc3cc(OC)c(OC)cc23)c1` the inhibition was 98.5%.
`COc1ccc2c(c1)O[C@H](c1ccc(OC)c(OC)c1)C[C@@H]2NC(=O)C1(c2ccc3c(c2)OC(F)(F)O3)CC1` gave an inhibition of 8.84%.
`CO[C@@H](C)c1c(Nc2ccc([C@H](N(C)C(=O)C3CCS(=O)(=O)CC3)C(F)(F)F)cc2)cnc2cc(Cl)nn12` has an inhibition of 2.45%.
For `N#CN1CC[C@H](C(=O)Nc2nc3c(s2)CN(C(=O)CN=[N+]=[N-])CC3)C1`, the inhibition was 30%.
With `CNC(=O)Nc1ccc2c(c1)[C@]1(CC2)OC(=O)N(CC(=O)N(Cc2ccc(F)cc2)[C@@H](C)C(F)(F)F)C1=O` the inhibition was 26.6%.
The inhibition of `CC(=O)Nc1ncc(CN2CCC[C@H](Cc3cc(C)nc(C)c3)C2)s1` is reported as -2.94%.
`CN(C)CC#Cc1ccc(OCCCc2sc(N3CCc4cccc(C(=O)Nc5nc6ccccc6s5)c4C3)nc2C(=O)O)c(F)c1` gave an inhibition of 40.1%.
For `COCCc1ccc(-c2c(C)nc3c(N4CCOCC4)ccnn23)cn1`, the inhibition was 45.9%.
The inhibition of `Cc1ccc(-c2cnc([C@@]3(O)CC[C@H](C(=O)O)C(C)(C)C3)s2)cc1Nc1cccc(C(F)(F)F)n1` is reported as 11.2%.
The inhibition of `O=C(NS(=O)(=O)c1ccc(NCC2CCOCC2)c([N+](=O)[O-])c1)c1ccc(N2CCN(Cc3ccc(C(F)(F)F)cc3-c3ccc(Cl)cc3)CC2)cc1Oc1cnc2[nH]ccc2c1` is reported as 12.5%.
`CC(=O)c1c(NS(C)(=O)=O)c2cc(-c3ccc(Cl)cc3)c(-c3ccc(Cl)cc3Cl)nc2n(C)c1=O` has an inhibition of 78.8%.
For `CC(=O)N1CCC(c2ccc(C(=O)NC(=N)N)cc2C(F)(F)F)CC1`, the inhibition was -22.7%.
`c1ccc(N2CCN(Cc3nc4ccccc4[nH]3)CC2)nc1` gave an inhibition of 2.58%.
The inhibition of `CN([C@@H]1CCc2c(CC(=O)O)c3cc(S(C)(=O)=O)ccc3n2C1)S(=O)(=O)c1ccc(F)cc1` is reported as 7.27%.
The inhibition of `CN(C)c1ncnc(-c2ccc3nc(Nc4cc(CN5CCN(C(=O)CC(F)(F)F)CC5)ccn4)[nH]c3c2)c1Cl` is reported as -4.19%.
With `Cn1cc(Cl)c2c(Oc3c(F)cc(Nc4cc(Cl)nc(N)n4)cc3F)ccnc21` the inhibition was -1.36%.
`O=C(NCc1ncc(C(F)(F)F)cc1Cl)c1ccc2c(c1)C1(CCS(=O)(=O)CC1)[C@@H](C1CC1)N2S(=O)(=O)c1ccc(F)cc1` gave an inhibition of 5.01%.
For `CN(C)C(=O)Cn1cc(-c2nc(C3(c4ccc(-c5cnc(N)nc5)cc4)CC3)no2)cn1`, the inhibition was -18.1%.
`CC1CCN(c2ccnc(NCc3cn(C)cn3)n2)CC1` has an inhibition of 33.8%.
`CC1=C(C#N)[C@@H](c2ccc3[nH]nc(C)c3c2)C(C#N)=C(c2ccc(Cl)cc2)N1` gave an inhibition of 5.76%.
`O[C@]1(C(F)(F)F)CCCC[C@H]1Nc1ccc(F)cc1` gave an inhibition of 69.4%.

Study 3
Target: CCNA1, cyclin fold, Cln2 fusion (human)
Technique: yeast growth competition, sequencing
Matrix: yeast
Notes: strong parent motif
Reference: not given
Reading: higher = stronger binding
Starting sequence: viral docking peptide; YKVKRRLVFGADD
`V3K` — result for “normalised enrichment score”: 0.0215.
`A11H` — result for “normalised enrichment score”: 1.29.
`R6Y`: “normalised enrichment score” 0.171.
Under “normalised enrichment score”, `V3R` is recorded as 0.616.
`K2L` — result for “normalised enrichment score”: 1.34.
`R6Q`: “normalised enrichment score” 1.12.
`A11R`: “normalised enrichment score” 1.35.
Under “normalised enrichment score”, `G10K` is recorded as 1.19.

Mixed results
CAMK2A: Calcium/calmodulin-dependent protein kinase type II subunit alpha (CAMK2A, Homo sapiens, UniProt Q9UQM7)
Chain of UniProt Q9UQM7 (whole entry, looked up): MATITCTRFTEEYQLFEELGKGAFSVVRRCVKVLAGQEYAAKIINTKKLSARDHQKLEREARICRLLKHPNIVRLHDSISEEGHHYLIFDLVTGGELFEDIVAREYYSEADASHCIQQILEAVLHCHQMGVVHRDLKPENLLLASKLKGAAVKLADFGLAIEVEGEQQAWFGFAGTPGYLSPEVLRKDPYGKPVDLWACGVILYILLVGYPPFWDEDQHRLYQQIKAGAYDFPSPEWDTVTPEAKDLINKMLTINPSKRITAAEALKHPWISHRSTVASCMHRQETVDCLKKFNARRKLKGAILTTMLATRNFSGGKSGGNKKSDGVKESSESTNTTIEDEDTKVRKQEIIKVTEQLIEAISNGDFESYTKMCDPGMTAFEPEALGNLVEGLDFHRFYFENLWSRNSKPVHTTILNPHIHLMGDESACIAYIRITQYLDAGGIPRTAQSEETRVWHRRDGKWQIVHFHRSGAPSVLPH
`CC[C@@H](C)c1nc2cc(Nc3ccnc4ccc(S(=O)(=O)C(C)C)cc34)ccc2s1.Cl` has a survival of 105% and 99.2% and 102% and 104% (L929 RIPK3-/- reexpressing RIPK3 K51A; CCK-8; 3.125 µM, added: zVAD).
The viability of `O=C1CC[C@@]2(O)[C@H]3Cc4ccc(O)c5c4[C@@]2(CCN3CC2CC2)[C@H]1O5` is reported as 109% (A-375; 100 µM, 36 h).
With `CC(C)(C)c1cc(C=C(C#N)C#N)cc(Br)c1O` the remaining activity was 90.7% (Cyclin-dependent kinase 2, with cyclin A (CDK2, Homo sapiens, UniProt P24941); enzyme activity, inhibitor; 0.5 µM).
With `CN=C(N)N` the inhibition was -58% (CAMK2A; enzyme activity, inhibitor; 10 µM).
`O=C1NC(=O)c2c1c1c3ccccc3n3c1c1c2c2ccccc2n1[C@H]1CC[C@@H]3O1` has a remaining activity of 35% (Ribosomal protein S6 kinase beta-2 (RPS6KB2, Homo sapiens, UniProt Q9UBS0); enzyme activity, inhibitor; 0.5 µM; reference: control).
The viability of `C#C[C@]1(O)C=C[C@H]2[C@@H]3CCC4=CC(=O)CC[C@@H]4[C@H]3CC[C@@]21CC` is reported as 15.6% (A-375; 100 µM, 36 h).
`CC(=O)O[C@H]1C[C@]2(O)[C@@H]3CC[C@@H]4C[C@@H](O)CC[C@]4(C)[C@H]3CC[C@]2(C)[C@H]1c1ccc(=O)oc1` has an inhibition of 26% (CAMK2A; enzyme activity, inhibitor; 10 µM).

For quick reference, copied from above (study 2):
The inhibition of `Cc1ccc(-c2cnc([C@@]3(O)CC[C@H](C(=O)O)C(C)(C)C3)s2)cc1Nc1cccc(C(F)(F)F)n1` is reported as 11.2%.
The inhibition of `O=C(NS(=O)(=O)c1ccc(NCC2CCOCC2)c([N+](=O)[O-])c1)c1ccc(N2CCN(Cc3ccc(C(F)(F)F)cc3-c3ccc(Cl)cc3)CC2)cc1Oc1cnc2[nH]ccc2c1` is reported as 12.5%.
`CC(=O)c1c(NS(C)(=O)=O)c2cc(-c3ccc(Cl)cc3)c(-c3ccc(Cl)cc3Cl)nc2n(C)c1=O` has an inhibition of 78.8%.
